Results of several laboratories.
Parts stem from different laboratories: compare values within a part only. Changes are numbered by the printed parent chain.

Block 1
Target: RNA binding protein fox-1 homolog 2, RRM domain, GST-SBP tag (RBFOX2, Homo sapiens, UniProt O43251-10, residues 100-194)
Technique: RNA Bind-n-Seq
Form: RNA
Sample: in vitro
Tested at: 365 nM
Notes: natural RNA segment, single round, ends assumed
Baseline: no-protein control
Direction: higher = stronger binding
Construct (chain): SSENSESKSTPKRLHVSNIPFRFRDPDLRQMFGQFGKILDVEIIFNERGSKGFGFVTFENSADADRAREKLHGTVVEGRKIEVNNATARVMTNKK
`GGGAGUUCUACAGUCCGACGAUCUUGGGGUGCCUUCAUUUGCAUGCGUGUGCCCUGACCCCAAGAACCCCCAAAUUACUCACAAAUUAAUGAGAGAUGUGAUCCAAACAGGAUUUUCGUCCCUGCCCCAUCCCUGGAAUUCUCGGGUGCCAA` — result for “RBNS enrichment (R)”: 8.97.
`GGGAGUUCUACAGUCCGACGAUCCGUUUGGUUUUCUUUUCAGAACUUGGGAGCCCCCAGGGAGGGGCUAGUGUUGGUAGGUCCUAGACGUGGUUCCCUCCAGCCUCCCCAAAAUCAACCCUGGUGUUGAGAGAUGGAAUUCUCGGGUGCCAA`: “RBNS enrichment (R)” 0.343.
Under “RBNS enrichment (R)”, `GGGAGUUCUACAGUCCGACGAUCAGCUCUCCCUGAGGCCAGAGGCGGGGCCUGGGCCGGGAGCCCAGGGGAAGGCCAGGCUGGACCCCGGCUCCACACCCACAUCCAGCCUGCAGGCCUCUCUGCAGUCCUCUUGGAAUUCUCGGGUGCCAA` is recorded as 0.215.
For `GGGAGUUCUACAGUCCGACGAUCGUACUUUUCUCAGUGACCUCUGGAAUAAAAGAACUGACUUUUGAUAGUUUUAAAAUUAAUCUUUGCAUGAAGGUUGGUUUCGCUUUUUUUCCUUUAAGUUUGUUUUUAAAUGGAAUUCUCGGGUGCCAA`, “RBNS enrichment (R)” read 27.6.
`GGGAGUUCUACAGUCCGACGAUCCUAAUGUGUAUUAAAGUCAGAAAAUAAUAUAUUUAAGGUAUACUAAGUAUGAAUCUGCUAUGAUAAAAGAAAUUCUCACUUCUCAAAUAGUCUUCUUGUAAGGAGCAUUGUGGAAUUCUCGGGUGCCAA` — result for “RBNS enrichment (R)”: 0.361.
For `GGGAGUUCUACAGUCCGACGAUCAAAAAAAAAAUUCCAUCCUCGUAUCUCAUGUGUACACAUAUGAACACACACACUGCACAUGUAACUGCCCUUCUUCUUUCUGGCUCCUAAACGCCUUUGAGCUUGUUGGUUGGAAUUCUCGGGUGCCAA`, “RBNS enrichment (R)” read 0.737.
`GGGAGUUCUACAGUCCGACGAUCUCAGAGCUGGGUUCAAAAAGAAAAUUCUAGUGUCUAUAUGGAGCACUUGGUUUGGGGGUUCAGGCUCCAGGAUCAAUUUAGAGGGAUCCUUGAACCCAGCCCCGUGAACAUGGAAUUCUCGGGUGCCAA`: “RBNS enrichment (R)” 0.493.
Under “RBNS enrichment (R)”, `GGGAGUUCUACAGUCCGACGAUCUUCAUCUAUUAAACAGGGUUGGUUUUUCUGGUUGCUAGGGAGACUUAUAGUAAUACAACUUACUAUUCUAGAUUCUUCUUAUCGCUGUGUUUUAUUUGCCAUGUAUCAUCUGGAAUUCUCGGGUGCCAA` is recorded as 0.283.

Block 2
Target: CCNE2, cyclin fold, Cln2 fusion (human)
Technique: yeast growth competition, sequencing
Sample: yeast
Notes: weak parent motif
Baseline: not given
Direction: higher = stronger binding
Starting sequence: RB1 docking peptide (human); PKPLKKLRFDIEG
Under “normalised enrichment score”, `PKPLKMLRFDIEG [K6M]` is recorded as 0.206.
`PKPLKKLRFDIES [G13S]`: “normalised enrichment score” 0.916.
`PKPLKKLRFDVEG [I11V]` — result for “normalised enrichment score”: 1.01.
Under “normalised enrichment score”, `PIPLKKLRFDIEG [K2I]` is recorded as 1.91.
`PKPLKKERFDIEG [L7E]`: “normalised enrichment score” 0.0747.
Under “normalised enrichment score”, `PKPLKKLRFDIRG [E12R]` is recorded as -0.0436.
`PKPGKKLRFDIEG [L4G]` — result for “normalised enrichment score”: 0.497.
`PKPLKKQRFDIEG [L7Q]`: “normalised enrichment score” 0.346.
`PKPNKKLRFDIEG [L4N]`: “normalised enrichment score” 0.843.

Block 3
Target: ABI1, truncated, D143A, DHFR fusion (Arabidopsis thaliana)
Technique: DHFR PCA, deep sequencing
Sample: yeast
Notes: methotrexate growth selection, single substitutions
Together with: (+)-ABA 0 µM
Baseline: wild-type fitted maximum
Direction: higher = stronger binding
Starting sequence: PYL1, truncated, DHFR fusion (Arabidopsis thaliana); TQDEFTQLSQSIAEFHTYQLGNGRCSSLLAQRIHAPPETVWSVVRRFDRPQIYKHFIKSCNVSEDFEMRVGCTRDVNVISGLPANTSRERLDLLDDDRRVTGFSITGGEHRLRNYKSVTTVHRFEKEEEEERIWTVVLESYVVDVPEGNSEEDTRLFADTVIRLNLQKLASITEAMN; partner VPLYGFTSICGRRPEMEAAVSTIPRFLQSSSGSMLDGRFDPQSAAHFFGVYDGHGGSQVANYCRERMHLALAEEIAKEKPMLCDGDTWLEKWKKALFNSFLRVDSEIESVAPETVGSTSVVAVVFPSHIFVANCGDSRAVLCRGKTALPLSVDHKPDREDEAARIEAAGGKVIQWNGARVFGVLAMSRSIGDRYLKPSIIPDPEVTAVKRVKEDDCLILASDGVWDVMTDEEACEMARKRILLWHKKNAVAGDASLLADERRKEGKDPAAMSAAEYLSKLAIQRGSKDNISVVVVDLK
Under “relative binding score”, `V161E` is recorded as -2.71%.
Under “relative binding score”, `S26V` is recorded as 2.48%.
`S59K`: “relative binding score” 28%.
For `D48H`, “relative binding score” read -2.06%.

Other studies, line by line
For `PhoQ, residues 284 288 289 292 302 303 TYGVAM`, the fold induction was 6.32 (PhoP, residues 12 14 15 18 19 STWGI (Escherichia coli, UniProt P23836); Sort-seq, item: YFP reporter; E. coli; PhoQ-PhoP variant library, together with: 10 µM Mg2+; baseline: high Mg2+ state, higher = stronger signaling).

Repeated from above (block 2):
`PKPLKKLRFDVEG [I11V]` — result for “normalised enrichment score”: 1.01.
Under “normalised enrichment score”, `PIPLKKLRFDIEG [K2I]` is recorded as 1.91.
